Measured values collected from several papers.
Each line is one published result; not all experiments were run side by side. ± marks the error that the study gave.

SMILES	target or system	test	system	setting	scale	measurement	value
CO[C@@H]1[C@H](O)[C@@H](COP(=O)(O)OP(=O)([S-])OP(=O)(S)OC[C@H]2O[C@@H](n3cnc4c(=O)[nH]c(N)nc43)[C@H](O)[C@@H]2O)O[C@H]1n1c[n+](C)c2c(O)nc(N)nc21 (mixture of isomers)			rabbit reticulocyte lysate	analog-capped luciferase mRNA	reference: m7GpppG-capped mRNA	relative translation efficiency	3.16 ± 0.76
O=C(O)c1ccc(/C=C2\SC(=S)N(c3cccc(C(F)(F)F)c3)C2=O)cc1	mouse BMDM			concentration not given, with: cytosolic LPS		noncanonical NLRP3 activation	decreased
C[n+]1cn(C2OC(COP(=O)(O)OP(=O)([O-])OP(=O)(O)OCC3OC(n4cnc5c(=O)[nH]c(N)nc54)C(O)C3O)C(O)C2O)c2nc(NCc3ccc(Cl)cc3)[nH]c(=O)c21 (stereo not drawn)		cap-dependent translation	rabbit reticulocyte lysate		reference: m7GpppG-capped mRNA	relative translation efficiency	3.52 ± 0.73
CO[C@@H]1[C@H](O)[C@@H](COP(=O)(O)OP(=O)([O-])C(F)(F)P(=O)(O)OP(=O)(O)OC[C@H]2O[C@@H](n3cnc4c(=O)[nH]c(N)nc43)[C@H](O)[C@@H]2O)O[C@H]1n1c[n+](C)c2c(O)nc(N)nc21			rabbit reticulocyte lysate	1 h, luciferase mRNA capped with compound	reference: m7GpppG-capped mRNA	relative translation efficiency	1.57 ± 0.1
Nc1nc2c(ncn2[C@H]2C[C@H](O)[C@@H](COP(=O)(O)OP(=O)(O)[C@H](F)P(=O)(O)O)O2)c(=O)[nH]1	DNA polymerase beta (POLB, Homo sapiens, UniProt P06746, R183A)	substrate, pre-steady-state kinetics		incorporation opposite dC in gapped DNA		kpol	0.27 s⁻¹
CO[C@@H]1[C@H](O)[C@@H](COP(=O)(O)OP(=O)([O-])C(Cl)(Cl)P(=O)(O)OP(=O)(O)OC[C@H]2O[C@@H](n3cnc4c(=O)[nH]c(N)nc43)[C@H](O)[C@@H]2O)O[C@H]1n1c[n+](C)c2c(O)nc(N)nc21			rabbit reticulocyte lysate	1 h, luciferase mRNA capped with compound	reference: m7GpppG-capped mRNA	relative translation efficiency	1.71 ± 0.25
COc1cccc(OC)c1OCCCn1cc(CCCNc2nc3c(c(=O)[nH]2)[n+](C)cn3C2OC(COP(=O)(O)OP(=O)([O-])OP(=O)(O)OCC3OC(n4cnc5c(=O)[nH]c(N)nc54)C(O)C3O)C(O)C2O)nn1 (stereo not drawn)		cap-dependent translation, inhibitor	rabbit reticulocyte lysate	concentration not given	reference: m7GpppG	relative inhibitory potency	6.9
NS(=O)(=O)Nc1ncnc(OCCOc2ncc(Br)cn2)c1-c1ccc(Br)cc1		metabolite formation	male Sprague-Dawley rat, liver microsomes	150 mg/kg daily for 4 weeks		Vmax	543 ± 33 pmol/min/mg
C[n+]1cn(C2OC(COP(=O)([O-])OP(=O)(O)OP(=O)(O)OCC3OC(n4cnc5c(=O)[nH]c(N)nc54)C(O)C3O)C(O)C2O)c2nc(NCc3cc(-c4ccccc4)no3)[nH]c(=O)c21 (stereo not drawn)		cap-dependent translation	rabbit reticulocyte lysate		reference: m7GpppG-capped mRNA	relative translation efficiency	3.51 ± 0.82
COc1ccc2c(c1)c1c(C)c3cnccc3c(C)c1n2CCCN1CCN(C)CC1	WT-NHE luciferase construct	PDGFR-β promoter reporter		IC50 or 50% of IC50, 24 h		decrease in luciferase activity	~60%
C[n+]1cn(C2OC(COP(=O)(O)OP(=O)([O-])OP(=O)(O)OCC3OC(n4cnc5c(=O)[nH]c(N)nc54)C(O)C3O)C(O)C2O)c2nc(NCc3ccccc3)[nH]c(=O)c21 (stereo not drawn)		cap-dependent translation, inhibitor	rabbit reticulocyte lysate	concentration not given	reference: m7GpppG	relative inhibitory potency	14.7 fold
CNc1ccccc1C(=O)O[C@H]1C[C@H](n2cnc3c(N)ncnc32)O[C@@H]1COP(=O)(O)OP(=O)(O)O	Unconventional myosin-Va (Gallus gallus, UniProt Q02440, D297C/G292C/I296C/S293C/V295G)	van't Hoff analysis		with: 2 mM Mg2+		ΔH of pocket step	-4.4 ± 3.3 kcal/mol

Excerpt of the above:
SMILES	target or system	test	system	setting	scale	measurement	value
C[n+]1cn(C2OC(COP(=O)(O)OP(=O)([O-])OP(=O)(O)OCC3OC(n4cnc5c(=O)[nH]c(N)nc54)C(O)C3O)C(O)C2O)c2nc(NCc3ccc(Cl)cc3)[nH]c(=O)c21 (stereo not drawn)		cap-dependent translation	rabbit reticulocyte lysate		reference: m7GpppG-capped mRNA	relative translation efficiency	3.52 ± 0.73
